Published values pooled from the literature.
Every numbered part comes from another study and shows a few of its results, in no order. Changes are numbered by the printed parent chain.

Set 1
Target: CCNB1, cyclin fold, Cln2 fusion (human)
Method: yeast growth competition, sequencing
Medium: yeast
Notes: weak parent motif
Baseline: not given
Direction: higher = stronger binding
Starting sequence: CDC25A docking peptide (human); PPHRRRLLFACSP
| Variant | normalised enrichment score |
| --- | --- |
| PPHRRRLLFASSP [C11S] | 0.37 |
| PPNRRRLLFACSP [H3N] | 0.624 |
| PPHRRRHLFACSP [L7H] | 0.287 |
| PPHRRFLLFACSP [R6F] | 0.211 |
| PPHRCRLLFACSP [R5C] | 0.321 |
| APHRRRLLFACSP [P1A] | 0.315 |
| PPHRRRLLFACKP [S12K] | 0.497 |
| PPHGRRLLFACSP [R4G] | 0.501 |
| PPHRRRLLEACSP [F9E] | 1.07 |
| NPHRRRLLFACSP [P1N] | 0.674 |
| PPHRRRMLFACSP [L7M] | 0.388 |
| PDHRRRLLFACSP [P2D] | 0.15 |
| PPDRRRLLFACSP [H3D] | 1.24 |
| PPHRRRLLRACSP [F9R] | 1.32 |
| PPHRRRLLHACSP [F9H] | 0.251 |
| PPTRRRLLFACSP [H3T] | 0.698 |
| PPHRRRLLFICSP [A10I] | 0.0599 |
| PVHRRRLLFACSP [P2V] | 0.535 |
| PPHRRRLLFECSP [A10E] | 0.335 |
| PPHRRRLLFATSP [C11T] | 0.236 |
| PPHRRRNLFACSP [L7N] | 0.418 |
| PPHRRRWLFACSP [L7W] | 0.372 |
| PPHRRVLLFACSP [R6V] | 0.345 |
| PPHRRRLLFACSF [P13F] | 0.449 |
| PPHRRRLLFACSV [P13V] | 0.107 |

Set 2
Target: Centromere-binding protein 1, full length, His-tagged (CBF1, Saccharomyces cerevisiae, UniProt P17106, residues 1-351)
Sequence of UniProt P17106 (whole entry, looked up): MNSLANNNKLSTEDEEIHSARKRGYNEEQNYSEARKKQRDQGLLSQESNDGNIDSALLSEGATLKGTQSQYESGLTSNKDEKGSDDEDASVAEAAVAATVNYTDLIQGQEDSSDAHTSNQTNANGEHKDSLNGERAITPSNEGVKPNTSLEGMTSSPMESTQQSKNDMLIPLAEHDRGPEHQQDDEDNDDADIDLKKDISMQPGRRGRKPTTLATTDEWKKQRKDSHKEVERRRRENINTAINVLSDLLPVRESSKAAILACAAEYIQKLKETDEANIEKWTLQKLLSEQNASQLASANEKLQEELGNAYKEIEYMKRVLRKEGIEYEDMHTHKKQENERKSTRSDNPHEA
Method: competition protein-binding microarray
Form: double-stranded DNA, one strand shown
Medium: in vitro
Concentration: 2 µM
Notes: whole 60-bp probe, lowest competitor level
Together with: Pho4 competitor, 0.05 µM
Direction: higher = stronger binding
All sequences stand within: … GTCTTGATTCGCTTGACGCTGCTG
| Strand | fluorescence intensity |
| --- | --- |
| CATACCCAACCTTGTCACACCACTTAAGATATTTGT | 134 a.u. |
| AGAAACTTCAACTCACATATGCACTATGGATGCCAA | 68.3 a.u. |
| CACTACGGTCTTAGATTCGTGCGATTTCCGGCTACC | 80.5 a.u. |
| CATACCCAACCTTGGGGTGTGGGTGAAGATATTTGT | 70.3 a.u. |
| CCATTGGAAACAGTGCTCGTGCATCTTGATGTTATT | 105 a.u. |
| TTTTTGTTCGCTACCCACGTCTTGACCGACGGTACC | 56 a.u. |
| CTAACGAAGGTTTGACCGGTGGGTGACAAGCCAAGT | 67.1 a.u. |
| CAACCGCGTCGGCCCAACCTGATCTTGCAATTAGCA | 55.1 a.u. |
| CCAGGCCTCCAAGCCCACGTGACAACAAGCTCCGCC | 3240 a.u. |
| CATCTGCCATTCAACAACGTGCCAGCAGGCCTATTA | 117 a.u. |
| TAACCTTAATTAATGCCCGTGCCAGGATGATTGCAT | 97.7 a.u. |
| CGGGGTTAAGTTTGGTGTGTGGGTGGCTTGCAGCAG | 74.8 a.u. |
| CTTTCCCGATCTTGTCACATGACTTTAGCACATTTG | 2470 a.u. |
| CATACCCAACCTTGTAGAGTGGGTGAAGATATTTGT | 89.7 a.u. |
| ACTCAGGTTATCAAGTTCGTGCAAACTATTCAAGAA | 74.5 a.u. |
| CACCAATTCCCAGAGCACATGATGCCTCCACGGAAT | 347 a.u. |
| GTCTTGTCTCATTGCAGTGTGGGTGTCCCCACTTCA | 74.6 a.u. |
| CTCTGCGGTGGCAGCAACGTGACGGTATAGTGTGTA | 371 a.u. |
| CTTTTTAGGGACCGTCACGGGAAGCCTGTTGGAGAC | 108 a.u. |

Set 3
Target: Interferon regulatory factor 5, full length, phosphomimetic (IRF5, Homo sapiens, UniProt Q13568-2, residues 1-514, K96S/S451D/S453D/S456D/S462D)
Method: protein-binding microarray
Form: double-stranded DNA, one strand shown
Medium: in vitro
Concentration: 250 nM
Notes: 60-bp whole probe
Together with: salmon DNA 0.4 mg/ml
Baseline: random background probes
Direction: higher = stronger binding
All sequences stand within: GCCTAGCAC … GTCTTGATTCGCTTGACGCTGCTG
| Strand | log fluorescence [z-score] |
| --- | --- |
| GACGGTATCGGGGTTCGGGACGTGCTA | 1.18 |
| TTAGATATCGGATTTCGATTAGTGCTA | 4.52 |
| GACGTACTGCTTATCCTGACGTGCTAG | -0.111 |
| GCCGGTTTCCTTTTCCTGACGTGCTAG | 1.33 |
| TTACGTATCGGTATCGGTTAGTGCTAG | 10 |
| TCATATATATTGTTAGTACTGTGCTAG | 0.565 |
| TCATATTCATATATATAACTGTGCTAG | 1.19 |
| GACGGACTGGGTTTCGGGACGTGCTAG | 2.4 |
| TCACCTTTTTTGTTGTTACTGTGCTAG | 1.06 |
| TTAGATTTGGGGTTTCGATTAGTGCTA | 5.73 |
| TTAGGTCTCGGTATCAGTTAGTGCTAG | 1.63 |
| TTAGAACTGAGACTGTATTAGTGCTAG | 0.0284 |
| TCATTTCTTTCAAATGAAACTGTGCTA | 2.03 |
| TCATAATTCTTTGCTCATACTGTGCTA | 0.946 |
| TCAGATTTTTTTTCCTAACTGTGCTAG | 0.716 |
| GACGGACTGGGGACTGGGGTCGTGCTA | -0.396 |
| TTAGGACTGGGTTTCGGTTTGTGCTAG | 7.85 |
| GACGAACTTGGGTTTCGAGACGTGCTA | 1.72 |
| CACTGCATCTGATTTCTCAAAGTGCTA | 0.695 |

Set 4
Target: Sal-like protein 4, full length isoform B (SALL4, Homo sapiens, UniProt Q9UJQ4-2, residues 1-616)
Method: universal PBM
Form: double-stranded DNA, one strand shown
Medium: in vitro
Concentration: not given
Notes: 8-mer, flanks averaged, mean of replicates
Direction: higher = stronger binding
Target sequence (chain): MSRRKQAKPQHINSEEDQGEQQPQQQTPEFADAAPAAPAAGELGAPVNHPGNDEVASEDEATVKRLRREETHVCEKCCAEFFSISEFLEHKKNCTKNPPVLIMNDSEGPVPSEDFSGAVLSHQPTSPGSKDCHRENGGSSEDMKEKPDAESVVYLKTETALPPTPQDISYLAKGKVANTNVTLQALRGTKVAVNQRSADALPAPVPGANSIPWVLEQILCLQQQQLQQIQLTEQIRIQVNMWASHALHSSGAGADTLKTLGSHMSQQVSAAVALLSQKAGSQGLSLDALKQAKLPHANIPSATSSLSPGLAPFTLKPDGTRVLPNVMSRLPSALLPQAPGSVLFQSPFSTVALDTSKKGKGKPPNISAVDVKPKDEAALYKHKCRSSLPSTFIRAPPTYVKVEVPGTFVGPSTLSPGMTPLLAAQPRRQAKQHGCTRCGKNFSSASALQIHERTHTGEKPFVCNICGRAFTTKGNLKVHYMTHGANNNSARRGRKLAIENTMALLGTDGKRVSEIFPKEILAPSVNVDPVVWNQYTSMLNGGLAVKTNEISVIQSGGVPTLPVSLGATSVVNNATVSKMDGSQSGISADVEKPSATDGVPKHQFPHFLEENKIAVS
| Strand | E-score |
| --- | --- |
| AAGCTTTC | -0.0679 |
| CTTGTGCA | -0.026 |
| TAAGACCA | 0.0511 |
| GCTCCGCC | -0.329 |
| ATGCAGCG | -0.117 |
| GAGAATGA | 0.0901 |
| AGTGCAGC | -0.106 |
| GGCGCTTA | -0.213 |
| GTTCTACA | 0.0449 |
| ACTCCAGC | -0.213 |
| AGACAAGG | -0.162 |
| GGTTTACA | 0.203 |
| ACCGGCGT | -0.258 |
| ACTGCACA | 0.00436 |
| GCCTACGA | -0.00793 |
| AGAACAGC | -0.118 |
| ACGTGTTG | 0.157 |
| GTCCATTA | 0.147 |

Excerpt of the above (set 2):
| Strand | fluorescence intensity |
| --- | --- |
| AGAAACTTCAACTCACATATGCACTATGGATGCCAA | 68.3 a.u. |
| CACTACGGTCTTAGATTCGTGCGATTTCCGGCTACC | 80.5 a.u. |
| CATACCCAACCTTGGGGTGTGGGTGAAGATATTTGT | 70.3 a.u. |
| CCATTGGAAACAGTGCTCGTGCATCTTGATGTTATT | 105 a.u. |
| TTTTTGTTCGCTACCCACGTCTTGACCGACGGTACC | 56 a.u. |
| CTAACGAAGGTTTGACCGGTGGGTGACAAGCCAAGT | 67.1 a.u. |
| CAACCGCGTCGGCCCAACCTGATCTTGCAATTAGCA | 55.1 a.u. |
| CCAGGCCTCCAAGCCCACGTGACAACAAGCTCCGCC | 3240 a.u. |
| CATCTGCCATTCAACAACGTGCCAGCAGGCCTATTA | 117 a.u. |
| TAACCTTAATTAATGCCCGTGCCAGGATGATTGCAT | 97.7 a.u. |
| CGGGGTTAAGTTTGGTGTGTGGGTGGCTTGCAGCAG | 74.8 a.u. |
| CTTTCCCGATCTTGTCACATGACTTTAGCACATTTG | 2470 a.u. |
| CATACCCAACCTTGTAGAGTGGGTGAAGATATTTGT | 89.7 a.u. |
